Published values from different studies.
Parts stem from different laboratories: compare values within a part only.

Block 1 — method: aptamer microarray, sandwich; form: DNA with 2'F-ANA; sample: in vitro; tested at: 200 nM; added: Cy3 exosite-II aptamer, 400 nM; direction: higher = stronger binding
Target: Prothrombin, mature alpha-thrombin (F2, Homo sapiens, UniProt P00734)
Setting: whole 15-mer aptamer, many near background
For `GGTTGGTGTGGTTGG (2'F-ANA at 2 4 8 9 10 12 13)`, “mean fluorescence intensity” read 100 a.u.
Under “mean fluorescence intensity”, `GGTTGGTGTGGTTGG (2'F-ANA at 2 3 4 6 8 10 12 13 14 15)` is recorded as 147 a.u.
`GGTTGGTGTGGTTGG (2'F-ANA at 1 8 9 12 15)`: “mean fluorescence intensity” 404 a.u.
`GGTTGGTGTGGTTGG (2'F-ANA at 2 4 5 6 9 12 14 15)` — result for “mean fluorescence intensity”: 49.4 a.u.

Block 2 — method: universal PBM; form: double-stranded DNA, one strand shown; sample: in vitro; tested at: 600 nM; direction: higher = stronger binding
Target: Sal-like protein 4, full length isoform A (SALL4, Homo sapiens, UniProt Q9UJQ4, residues 1-1053)
Sequence of UniProt Q9UJQ4 (whole entry, looked up): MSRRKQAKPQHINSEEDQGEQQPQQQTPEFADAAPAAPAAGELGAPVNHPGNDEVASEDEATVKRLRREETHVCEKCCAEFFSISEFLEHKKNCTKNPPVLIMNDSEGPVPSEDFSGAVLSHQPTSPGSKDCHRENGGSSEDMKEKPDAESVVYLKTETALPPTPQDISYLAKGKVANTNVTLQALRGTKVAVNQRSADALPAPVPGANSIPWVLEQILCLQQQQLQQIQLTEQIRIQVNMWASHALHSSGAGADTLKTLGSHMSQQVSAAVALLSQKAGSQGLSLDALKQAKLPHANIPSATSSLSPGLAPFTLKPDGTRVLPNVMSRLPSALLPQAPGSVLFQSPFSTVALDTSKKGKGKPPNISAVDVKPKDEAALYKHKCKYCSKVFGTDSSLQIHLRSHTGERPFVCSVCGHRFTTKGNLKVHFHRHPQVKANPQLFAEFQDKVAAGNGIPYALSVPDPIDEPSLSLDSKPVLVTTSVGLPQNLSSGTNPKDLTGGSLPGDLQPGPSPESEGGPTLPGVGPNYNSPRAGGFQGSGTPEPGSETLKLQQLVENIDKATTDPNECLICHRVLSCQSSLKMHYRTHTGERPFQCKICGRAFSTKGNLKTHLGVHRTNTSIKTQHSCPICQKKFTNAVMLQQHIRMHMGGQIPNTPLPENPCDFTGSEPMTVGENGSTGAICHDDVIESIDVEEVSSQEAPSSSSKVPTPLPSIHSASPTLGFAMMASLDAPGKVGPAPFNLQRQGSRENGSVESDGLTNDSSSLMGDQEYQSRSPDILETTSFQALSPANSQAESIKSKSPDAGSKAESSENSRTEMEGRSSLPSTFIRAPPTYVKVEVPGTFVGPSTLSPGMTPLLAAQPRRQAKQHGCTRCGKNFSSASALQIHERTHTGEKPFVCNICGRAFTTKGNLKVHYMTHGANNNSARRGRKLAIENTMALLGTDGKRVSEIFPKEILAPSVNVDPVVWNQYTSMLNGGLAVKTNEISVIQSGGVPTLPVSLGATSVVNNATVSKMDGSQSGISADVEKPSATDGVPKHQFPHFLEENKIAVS
Setting: 8-mer, flanks averaged, mean of replicates
For `CCATGAGC`, the E-score was -0.245.
`AGGGTGTC` gave an E-score of -0.169.
`CGCGCAGA` has an E-score of -0.141.
For `CCCGCTGA`, the E-score was -0.413.

Block 3 — method: protein-binding microarray; form: double-stranded DNA, one strand shown; sample: in vitro; tested at: 0.8 µM; setting: whole 60-bp probe, no competitor; direction: higher = stronger binding
Target: Centromere-binding protein 1, full length, N-terminal tag (CBF1, Saccharomyces cerevisiae, UniProt P17106, residues 1-351)
Sequence of UniProt P17106 (whole entry, looked up): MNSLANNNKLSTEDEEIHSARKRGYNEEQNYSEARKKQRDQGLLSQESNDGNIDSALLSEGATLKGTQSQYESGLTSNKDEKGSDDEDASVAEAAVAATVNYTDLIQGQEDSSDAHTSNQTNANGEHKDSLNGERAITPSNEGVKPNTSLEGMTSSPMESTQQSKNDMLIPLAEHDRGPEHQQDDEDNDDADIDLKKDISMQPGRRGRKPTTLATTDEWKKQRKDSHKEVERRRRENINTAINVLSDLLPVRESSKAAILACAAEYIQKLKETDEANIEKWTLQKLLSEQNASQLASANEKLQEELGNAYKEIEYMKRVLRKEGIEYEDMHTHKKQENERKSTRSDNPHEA
For `CTATATCGACAGCTTCACGTGCCATTTGCCATTTTCGTCTTGATTCGCTTGACGCTGCTG`, the fluorescence intensity was 3260 a.u.
`GAAGTGTGTGGGTGTGGTGTGGTGTGGGTGTGGTAGGTCTTGATTCGCTTGACGCTGCTG` has a fluorescence intensity of 537 a.u.
`CTAACAATTTCGTCCGACGTGATCTGGAAAATATTCGTCTTGATTCGCTTGACGCTGCTG` gave a fluorescence intensity of 1020 a.u.
`GAAAAGTTTAGCATTCACGTGTAACTGCAATGATAGGTCTTGATTCGCTTGACGCTGCTG` gave a fluorescence intensity of 3740 a.u.

Single results of other studies
The fold induction of `PhoQ, residues 284 288 289 292 302 303 ASVMEA` is reported as 8.34 (PhoP, residues 12 14 15 18 19 NNFVT (Escherichia coli, UniProt P23836); Sort-seq, measured: YFP reporter; E. coli; PhoQ-PhoP variant library, added: 10 µM Mg2+; reference: high Mg2+ state, higher = stronger signaling).

Repeated from above (block 1):
`GGTTGGTGTGGTTGG (2'F-ANA at 1 8 9 12 15)`: “mean fluorescence intensity” 404 a.u.
`GGTTGGTGTGGTTGG (2'F-ANA at 2 4 5 6 9 12 14 15)` — result for “mean fluorescence intensity”: 49.4 a.u.
